Published values collected from several papers.
Compare with care: the assays were run in different laboratories. Several values in a cell are separate wells, animals, samples, runs or records. Numbers after ± are the reported error.

Compound	test	system	conditions	how to read	endpoint	value
CN1CC[C@@H](c2c(O)cc(O)c3c(=O)cc(-c4ccc(C(F)(F)F)cc4Cl)oc23)[C@@H]1CO	item: Vomiting	relapsed or refractory haematological malignancies	oral, dose not given, all arms	–	patients with adverse event	12.5%
N=C(N)NCCC[C@@H](NC(=O)[C@@H](N)Cc1ccccc1)C(=O)N[C@@H](Cc1ccccc1)C(=O)N[C@@H](CCCCN)C(N)=O	LC-MS	human	25 mg, 11.83 h	–	median fraction excreted in urine	5.71%
COc1cc2c(Oc3ccc4[nH]c(C)cc4c3F)ccnc2cc1OCC1(N)CC1	–	paediatric recurrent refractory sarcoma	10 mg	–	grade 1 or 2 Epistaxis	25%
Cn1cncc1-c1c(F)cncc1NC(=O)c1c(N)nn2cc(F)cnc12	–	human patients	oral, 220 mg once daily	–	grade ≥3 creatinine increase incidence	33%
CNC(=O)c1cc(Oc2ccc(NC(=O)Nc3cc(C(C)(C)C)nn3-c3ccc4ncccc4c3)c(F)c2)ccn1	retinal vein occlusion, NCI CTC v3.0	human patients	oral, all dose levels	–	related SAE	2%
NCCCC[C@@H]1NC(=O)[C@@H](Cc2c[nH]c3ccccc23)NC(=O)[C@H](c2ccccc2)NC(=O)[C@@H]2C[C@@H](OC(=O)NCCN)CN2C(=O)[C@H](Cc2ccccc2)NC(=O)[C@H](Cc2ccc(OCc3ccccc3)cc2)NC1=O	–	healthy volunteers	subcutaneous, 600 µg twice daily, day 5, 0.50 h	–	QTcI change from baseline	-1.9 ms
N=c1c2c(-c3ccccc3)c(-c3ccccc3)n(Cc3ccccc3)c2ncn1[C@H]1CC[C@H](O)CC1	–	cynomolgus monkey, male, plasma	–	–	AUC(0-t)/AUC(0-inf) ratio	> 95%
Clc1nc[n]([Au][PH](c2ccccc2)(c2ccccc2)c2ccccc2)c1Cl	–	NCG mouse, plasma	intraperitoneal, 10 mg/kg	–	terminal half-life	63.4 h
O=c1c2cc(Cl)c(CO)cc2[nH]c(=S)n1Cc1cncnc1	–	mouse, plasma	intravenous	–	clearance	115 mL/min/kg
CC(C)(O)c1cc(Nc2cc(Oc3cn(C4CC4)nc3C3CCOCC3)ccn2)ccn1	Nausea	advanced cancer patients, grade 4 glioma expansion	oral, 50 mg twice daily, all causality any grade	–	treatment-emergent adverse events	8%
CC(=O)c1c(C)c2cnc(Nc3ccc(C4CCN(CCS(C)(=O)=O)CC4)cn3)nc2n(C2CCCC2)c1=O	–	human, dose-escalation trial, plasma	oral, 25 mg twice daily, day 21, multiple doses	–	Cmax	79.9 ng/mL
COc1cccc(Oc2ccccc2NC(=O)CNC(=O)c2cccc3ccccc23)c1	–	esterase-deficient SCID mice, male	oral, 40 mg/kg/day, 14 days, toxicity study	–	serum creatinine	0.1 mg/dL and 0.2 mg/dL
C[C@@H](NC(=O)N1C(=O)[C@H](Cc2ccnc(N)c2)[C@H]1C(=O)O)C1CCCCC1	–	healthy adult Chinese volunteers	continuous intravenous infusion, 0.6 mg/kg/h, 5-day infusion, CTCAE 5.0 grading	–	incidence of urine ketone body positive	12.5%
Cn1c(-c2ccc(C(N)=O)cc2F)nnc1C(C)(C)Oc1c(F)cc(Cl)cc1F	–	human	oral, 3 mg, single ascending dose	–	subjects with drug-related TEAE	0%
CC(C)(C)c1cc(-n2nc3ccccc3n2)c(O)c(C(C)(C)C)c1	exposure assessment	human, age 16-21 years	sunscreen	–	mean daily dermal uptake	1.29 ng/kg body weight/day
N#C[C@@]1(n2ccc(N)nc2=O)O[C@H](CO)[C@@H](O)[C@H]1O	–	CD-1 mouse	oral, 30 mg/kg	–	clearance	15.5 mL/min/kg
O=[N+]([O-])NC1=NCCN1Cc1ccc(Cl)nc1	ultrafiltration	cow milk whey	20 nM nominal in whole milk	–	dose fraction in permeate	61%
CC(C)[C@@H]1NC(=O)CNC(=O)[C@H](CC(N)=O)NC(=O)[C@H](CCCNC(=N)N)NC(=O)[C@H](Cc2ccc(O)cc2)NC(=O)[C@H](C(C)C)NC(=O)[C@@H](NC(=O)[C@@H](NC(=O)[C@H](CC(N)=O)NC(=O)[C@H](Cc2c[nH]c3ccccc23)NC(=O)[C@H](C)NC(=O)[C@H](Cc2ccccc2)NC(=O)CN)C(C)C)CSSC[C@@H](C(=O)N[C@@H](Cc2cnc[nH]2)C(=O)N[C@@H](CCCNC(=N)N)C(=O)N[C@@H](CCCNC(=N)N)C(=O)N[C@@H](C)C(=O)N[C@@H](CC(N)=O)C(N)=O)NC(=O)[C@H](C(C)C)NC(=O)[C@H](CCCNC(=N)N)NC1=O	HPLC	trypsin	2560 µM, 6.00 h, added: trypsin 1 % w/v	–	remaining peptide	1%

Compound	test	system	conditions	how to read	endpoint	value
C[C@]1(CO)Cc2ncn(-c3ccc(C#N)c(Cl)c3)c2C(=O)O1	–	human	10 mg multiple doses, fasted	–	subjects with drug-related fatigue	0%
Clc1ccc(-c2ccccc2)cc1	–	female Sprague-Dawley rats, serum	inhalation, 23 µg/rat, 2 h after exposure	–	blood urea nitrogen	15 ± 5 mg/dL
COc1ncccc1-c1cnn2ccc(N3CCN(C(=O)OC(C)C)CC3)nc12	–	rat, CCI cold allodynia model, plasma	oral, 1 mg/kg, 240 min	–	free drug concentration	2.6 nM
COc1cc(C(=O)NC2CCN(C)CC2)c(F)cc1Nc1ncc(C(F)(F)F)c(Oc2cccc3c2C(=O)N(C)C3)n1	–	human patients, plasma	oral, 50 mg once daily repeated, geometric mean	–	mean residence time at steady state	27.9 h
CC(C)(C(=O)NC1C2CC3CC1CC(C(N)=O)(C3)C2)N1CCN(c2ccc(C(F)(F)F)cn2)CC1 (centres unmarked)	–	human, plasma	1 mg once daily, 5 days, median	–	dose-normalised free AUC(0-24)	0.887 (ng·h/mL)/mg
COc1ccnc(C(=O)N[C@H]2COC(=O)[C@H](Cc3ccccc3)[C@@H](OC(=O)C(C)C)[C@H](C)OC2=O)c1OCOC(=O)C(C)C	–	water/sediment	20 °C, whole system, geometric mean, aerobic dark	–	DT50	0.76 days
O=C(Nc1ccc2c(c1)B(O)OC2)c1ccccc1OCc1ccccc1	PAMPA	pre-coated trilayer membrane	200 µM, 5 h, pH 7.4, acceptor plate, PBS	–	acceptor concentration	5.2 ± 0.8 µM
O=S(=O)(Nc1ccccc1)c1ccc(NC(=S)Nc2ccccc2)cc1	–	male mouse, blood	oral, 5 mg/kg daily, 14 days	–	albumin level	2.9 g/dL
CCC[C@@](N)(CO)CCc1ccc(OCCCCCC(C)C)cc1	–	male hound dog	oral, 2.5 mg/kg, solution, IV dose 1.0 mg/kg	–	oral bioavailability	22%
COc1ccc(-c2c(-c3ccc(C#N)c(F)c3)nc(N3CCC(N)CC3)n(C)c2=O)cc1F	item: Nausea	relapsed/refractory marginal zone lymphoma patients	oral, 60 mg, grade 3 to 4, dose expansion	–	treatment-related adverse event incidence	0%
C=C(CN(C(=O)c1c(C(F)F)nn(C)c1F)C1CC1)c1ccc(Cl)cc1Cl	static acute toxicity test	zebrafish (Brachydanio rerio)	0.833 mg a.i./L, 6 h	–	mortality	0%
Cc1cccc(Cn2nc(C3CC3)c3c(NC(=O)c4cnc5cc(OCCN6CCN(C)CC6)ccn45)cccc32)n1	item: AST increased	human advanced solid tumours	oral, dose not given, all-causality,, all doses	–	adverse events incidence	63.2%
CCC(CC)O[C@@H]1C=C(C(=O)O)C[C@H](N)[C@H]1NC(C)=O	–	Sprague-Dawley rat male, plasma and urine	oral, 30 mg/kg	–	elimination rate constant	0.851 h⁻¹
O=C(Nc1ccccc1)C1CCN(C(=O)Oc2cccnc2)CC1	psychotropic effects VAS	healthy women	20 mg	relative to: pre-dose baseline, direction not given	change in Time score	0.6
CCN1[C@@H](C(=O)NC23CCC(C(=O)O)(CC2)CC3)[C@H](c2cccc(Cl)c2F)[C@]2(C(=O)Nc3cc(Cl)ccc32)C12CCCCC2	–	patients with advanced solid tumours	oral, 100 mg	–	abdominal pain incidence	0%
CO[C@H]1C[C@@H]2CC[C@@H](C)[C@@](O)(O2)C(=O)C(=O)N2CCCC[C@H]2C(=O)O[C@H]([C@H](C)C[C@@H]2CC[C@@H](OC(=O)NCCOCCOCCOCCOCCOCCOCCOCCOCCC(=O)N3CCc4cc(Cn5nc(-c6ccc7oc(N)nc7c6)c6c(N)ncnc65)ccc4C3)[C@H](OC)C2)C[C@@H](O)[C@H](C)/C=C(\C)[C@@H](O)[C@@H](OC)C(=O)[C@H](C)C[C@H](C)/C=C/C=C/C=C/1C	–	patients with advanced solid tumours	intravenous, dose not given, any grade	–	incidence of Rash TRAE	17.5%
CCc1ccc(CC/C=C/c2ccc3c(c2)C(=O)CC3)cc1	–	Sprague-Dawley rat, male	oral, 30 mg/kg/day, 14 days	–	Urea	4.93 mM
